{"data": "Published values gathered from unrelated publications", "organism": "Klebsiella pneumoniae", "note": "Lines come from different studies, so protocols differ."}
{"SMILES": "COc1ccc2ccc(O)c(/C=N/[C@H]3CCCC[C@H]3/N=C/c3cccc(OC)c3O)c2c1", "read-out": "bacterial growth", "technique": "broth microdilution", "strain": "carbapenem-resistant", "MIC": "> 40 µM"}
{"SMILES": "CC[C@H](C)[C@H](NC(=O)[C@@H](CCCNC(=N)N)NC(=O)[C@H](CCCNC(=N)N)NC(=O)[C@H](Cc1ccccc1)NC(=O)[C@H](Cc1c[nH]c2ccccc12)NC(=O)[C@H](CCCNC(=N)N)NC(=O)[C@@H]1CCCN1C(=O)[C@H](CCCNC(=N)N)NC(=O)[C@@H]1CCCN1C(=O)[C@H](CC(C)C)NC(=O)[C@H](Cc1ccc(O)cc1)NC(=O)[C@@H]1CCCN1C(=O)[C@@H]1CCCN1C(=O)[C@H](CCCCN)NC(=O)[C@H](CC(=O)O)NC(=O)[C@@H](N)C(C)C)C(=O)N[C@@H](Cc1ccc(O)cc1)C(=O)N[C@@H](CC(N)=O)C(=O)N[C@H](CCCNC(=N)N)C(N)=O", "technique": "broth microdilution", "strain": "DSM 681", "time": "18 h", "temperature": "37 °C", "notes": "25% MHB2", "MIC": "4 µg/mL"}
{"SMILES": "COc1ccc2ccc(O)c(/C=N/[C@H]3CCCC[C@H]3/N=C/c3cc(F)ccc3O)c2c1", "read-out": "bacterial growth", "technique": "broth microdilution", "strain": "carbapenem-resistant", "MIC": "> 40 µM"}
{"SMILES": "N=C(N)NCCC[C@@H]1NC(=O)[C@@H](CCCNC(=N)N)NC(=O)[C@H](CCCNC(=N)N)NC(=O)[C@@H](C(c2ccccc2)c2ccccc2)NC(=O)[C@@H](C(c2ccccc2)c2ccccc2)NC(=O)[C@@H](C(c2ccccc2)c2ccccc2)NC(=O)[C@@H](CCCNC(=N)N)NC1=O", "strain": "1188718, multidrug-resistant", "MIC": "> 64 µg/mL"}
{"SMILES": "C#CCNC(=O)C(C)(C)O/N=C(\\C(=O)N[C@@H]1C(=O)N(S(=O)(=O)O)[C@H]1C)c1csc(N)n1", "technique": "agar dilution", "strain": "2146 NDM-1", "MIC": "> 128 µg/mL"}
{"SMILES": "CN[C@@H]1[C@H](O)[C@H](NC)[C@H]2O[C@]3(O)[C@H](O[C@@H]2[C@H]1O)O[C@H](C)C[C@H]3NC(=O)CNC(C)(C)C", "read-out": "microbial growth", "technique": "broth dilution", "strain": "ATCC33495", "MIC": "200 µg/mL"}
{"SMILES": "CCn1c(-c2ccc(OC)cc2)c(-c2ccc(OC)cc2)n(Cc2c(C)cc(C)cc2C)c1=[Se]", "technique": "broth microdilution", "strain": "carbapenem-resistant BAA-1705", "time": "24 h", "MIC": "> 40 µM"}
{"SMILES": "CC1(C)[C@H](NC(=O)/C(=N\\OCC(=O)N2CCC(C(=O)O)C2)c2nsc(N)n2)C(=O)N1OS(=O)(=O)O (stereo partly shown)", "technique": "agar dilution", "strain": "09-20, NDM-1", "MIC": "64 µg/mL"}
{"SMILES": "CC[C@H](C)[C@H](NC(=O)[C@@H](CCCNC(=N)N)NC(=O)[C@H](CCCNC(=N)N)NC(=O)[C@@H]1CCCN1C(=O)[C@@H]1CCCN1C(=O)[C@H](CCCNC(=N)N)NC(=O)[C@@H]1CCCN1C(=O)[C@H](CCCNC(=N)N)NC(=O)[C@@H]1CCCN1C(=O)[C@H](CC(C)C)NC(=O)[C@H](Cc1ccc(O)c([N+](=O)[O-])c1)NC(=O)[C@@H]1CCCN1C(=O)[C@@H]1CCCN1C(=O)[C@H](CCCCN)NC(=O)[C@H](CC(=O)O)NC(=O)[C@@H](N)C(C)C)C(=O)N[C@@H](Cc1ccc(O)cc1)C(=O)N[C@@H](CC(N)=O)C(=O)N[C@H](CCCNC(=N)N)C(N)=O", "technique": "broth microdilution", "strain": "DSM 681", "time": "18 h", "temperature": "37 °C", "notes": "25% MHB2", "MIC": "4 µg/mL"}
{"SMILES": "CCCCCCCC(=O)N[C@@H](CCN)C(=O)N[C@H](C(=O)N[C@@H](CCN)C(=O)N[C@H]1CCNC(=O)[C@H]([C@@H](C)O)NC(=O)[C@H](CCN)NC(=O)[C@H](CCN)NC(=O)[C@H](CC(C)C)NC(=O)[C@@H](Cc2ccc(Cl)cc2)NC(=O)[C@H](CCN)NC1=O)[C@@H](C)O", "technique": "broth microdilution", "strain": "ATCC 19606", "MIC": "< 0.125 µg/mL"}
